Measured values pooled from the literature.
Compare with care: the assays were run in different laboratories. Values joined by “and” are separate records of one study, mostly repeats; a detail may differ. ± marks the error that the study gave.
UniProt Q91WC9, sequence (whole entry, looked up): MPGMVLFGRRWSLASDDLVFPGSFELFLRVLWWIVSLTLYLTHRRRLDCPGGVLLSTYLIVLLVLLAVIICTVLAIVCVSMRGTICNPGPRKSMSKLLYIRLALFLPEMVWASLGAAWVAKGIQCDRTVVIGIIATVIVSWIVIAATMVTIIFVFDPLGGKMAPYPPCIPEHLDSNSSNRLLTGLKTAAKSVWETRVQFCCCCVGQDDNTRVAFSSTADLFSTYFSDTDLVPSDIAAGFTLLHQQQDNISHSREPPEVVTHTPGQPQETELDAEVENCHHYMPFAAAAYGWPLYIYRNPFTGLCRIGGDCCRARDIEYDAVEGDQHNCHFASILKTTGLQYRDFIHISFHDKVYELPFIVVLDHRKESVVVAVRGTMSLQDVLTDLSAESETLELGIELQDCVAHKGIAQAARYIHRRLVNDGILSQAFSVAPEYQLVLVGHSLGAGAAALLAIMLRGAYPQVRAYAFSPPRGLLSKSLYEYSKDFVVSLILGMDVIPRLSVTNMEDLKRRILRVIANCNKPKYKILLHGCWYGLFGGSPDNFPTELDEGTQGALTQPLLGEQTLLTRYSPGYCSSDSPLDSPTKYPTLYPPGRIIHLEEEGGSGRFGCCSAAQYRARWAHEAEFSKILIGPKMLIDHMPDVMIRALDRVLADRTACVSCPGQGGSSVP
UniProt D0VWV4, sequence (whole entry, looked up): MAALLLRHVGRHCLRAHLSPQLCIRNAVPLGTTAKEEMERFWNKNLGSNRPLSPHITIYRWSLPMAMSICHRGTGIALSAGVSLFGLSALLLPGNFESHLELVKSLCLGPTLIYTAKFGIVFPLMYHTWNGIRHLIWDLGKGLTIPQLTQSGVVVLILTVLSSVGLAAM
UniProt Q007T0, sequence (whole entry, looked up): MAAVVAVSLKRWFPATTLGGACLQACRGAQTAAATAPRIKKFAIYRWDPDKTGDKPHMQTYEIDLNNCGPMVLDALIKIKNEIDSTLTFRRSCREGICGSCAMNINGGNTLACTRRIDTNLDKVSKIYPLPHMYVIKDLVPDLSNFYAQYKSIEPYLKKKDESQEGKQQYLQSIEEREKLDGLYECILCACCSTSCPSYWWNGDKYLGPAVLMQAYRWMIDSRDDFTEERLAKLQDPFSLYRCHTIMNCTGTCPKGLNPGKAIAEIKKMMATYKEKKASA
UniProt A5GZW8, sequence (whole entry, looked up): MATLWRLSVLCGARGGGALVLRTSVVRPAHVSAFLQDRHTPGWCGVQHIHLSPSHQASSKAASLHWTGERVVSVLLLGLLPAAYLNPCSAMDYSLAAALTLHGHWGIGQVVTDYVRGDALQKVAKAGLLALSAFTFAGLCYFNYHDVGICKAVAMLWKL
UniProt Q9DB29, sequence (whole entry, looked up): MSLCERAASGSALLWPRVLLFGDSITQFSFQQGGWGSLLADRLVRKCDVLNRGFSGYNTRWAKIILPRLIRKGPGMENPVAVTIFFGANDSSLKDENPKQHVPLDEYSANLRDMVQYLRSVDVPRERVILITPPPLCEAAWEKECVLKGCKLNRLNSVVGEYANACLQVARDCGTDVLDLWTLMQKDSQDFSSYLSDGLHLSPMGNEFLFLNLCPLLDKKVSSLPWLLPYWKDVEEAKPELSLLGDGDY
UniProt Q04912, sequence (whole entry, looked up): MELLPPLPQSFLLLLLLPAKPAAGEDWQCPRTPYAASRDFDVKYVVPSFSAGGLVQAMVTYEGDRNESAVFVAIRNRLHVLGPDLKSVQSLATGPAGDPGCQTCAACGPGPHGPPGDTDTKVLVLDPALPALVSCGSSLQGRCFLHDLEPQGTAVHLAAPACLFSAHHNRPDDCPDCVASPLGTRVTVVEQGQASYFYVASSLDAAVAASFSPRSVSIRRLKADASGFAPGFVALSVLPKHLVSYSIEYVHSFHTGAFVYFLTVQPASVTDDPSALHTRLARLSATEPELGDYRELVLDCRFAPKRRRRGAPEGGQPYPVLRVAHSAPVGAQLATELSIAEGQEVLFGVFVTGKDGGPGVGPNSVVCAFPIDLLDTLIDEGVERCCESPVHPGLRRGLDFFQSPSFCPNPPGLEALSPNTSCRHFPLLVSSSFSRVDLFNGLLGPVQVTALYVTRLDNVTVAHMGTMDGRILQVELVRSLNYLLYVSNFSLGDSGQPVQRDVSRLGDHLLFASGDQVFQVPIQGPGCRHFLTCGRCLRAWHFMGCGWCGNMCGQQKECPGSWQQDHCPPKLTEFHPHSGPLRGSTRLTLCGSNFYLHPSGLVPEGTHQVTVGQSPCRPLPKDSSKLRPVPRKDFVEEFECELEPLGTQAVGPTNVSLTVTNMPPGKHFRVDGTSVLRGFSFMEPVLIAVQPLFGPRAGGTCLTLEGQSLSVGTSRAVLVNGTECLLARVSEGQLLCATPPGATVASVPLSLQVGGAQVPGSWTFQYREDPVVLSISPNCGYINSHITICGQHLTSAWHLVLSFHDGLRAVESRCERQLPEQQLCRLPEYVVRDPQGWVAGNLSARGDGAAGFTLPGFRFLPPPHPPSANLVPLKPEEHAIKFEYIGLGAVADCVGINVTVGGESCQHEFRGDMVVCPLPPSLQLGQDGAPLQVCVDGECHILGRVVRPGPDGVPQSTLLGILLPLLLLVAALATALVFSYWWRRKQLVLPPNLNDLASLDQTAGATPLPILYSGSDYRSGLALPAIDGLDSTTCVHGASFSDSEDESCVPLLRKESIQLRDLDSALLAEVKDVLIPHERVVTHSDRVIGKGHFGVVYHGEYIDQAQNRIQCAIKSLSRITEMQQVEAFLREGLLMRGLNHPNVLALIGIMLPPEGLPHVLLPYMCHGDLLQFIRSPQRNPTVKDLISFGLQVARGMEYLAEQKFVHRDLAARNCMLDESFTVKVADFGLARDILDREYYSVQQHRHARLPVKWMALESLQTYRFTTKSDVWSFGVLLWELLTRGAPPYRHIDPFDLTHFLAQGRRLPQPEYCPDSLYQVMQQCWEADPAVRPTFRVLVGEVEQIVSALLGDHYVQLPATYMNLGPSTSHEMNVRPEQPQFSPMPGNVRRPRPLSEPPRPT
UniProt Q8I2X3, sequence (whole entry, looked up): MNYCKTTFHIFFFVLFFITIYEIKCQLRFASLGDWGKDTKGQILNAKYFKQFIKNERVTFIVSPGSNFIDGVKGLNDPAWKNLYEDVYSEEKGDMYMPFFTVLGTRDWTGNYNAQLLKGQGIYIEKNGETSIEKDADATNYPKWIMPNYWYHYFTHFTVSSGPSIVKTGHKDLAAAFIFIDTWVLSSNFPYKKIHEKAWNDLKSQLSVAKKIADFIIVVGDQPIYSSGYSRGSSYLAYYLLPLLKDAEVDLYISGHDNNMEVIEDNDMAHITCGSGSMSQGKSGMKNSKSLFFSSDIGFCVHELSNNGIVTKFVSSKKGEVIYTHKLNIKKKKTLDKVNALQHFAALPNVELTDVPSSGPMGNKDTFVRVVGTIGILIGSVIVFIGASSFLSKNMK
UniProt P08069, sequence (whole entry, looked up): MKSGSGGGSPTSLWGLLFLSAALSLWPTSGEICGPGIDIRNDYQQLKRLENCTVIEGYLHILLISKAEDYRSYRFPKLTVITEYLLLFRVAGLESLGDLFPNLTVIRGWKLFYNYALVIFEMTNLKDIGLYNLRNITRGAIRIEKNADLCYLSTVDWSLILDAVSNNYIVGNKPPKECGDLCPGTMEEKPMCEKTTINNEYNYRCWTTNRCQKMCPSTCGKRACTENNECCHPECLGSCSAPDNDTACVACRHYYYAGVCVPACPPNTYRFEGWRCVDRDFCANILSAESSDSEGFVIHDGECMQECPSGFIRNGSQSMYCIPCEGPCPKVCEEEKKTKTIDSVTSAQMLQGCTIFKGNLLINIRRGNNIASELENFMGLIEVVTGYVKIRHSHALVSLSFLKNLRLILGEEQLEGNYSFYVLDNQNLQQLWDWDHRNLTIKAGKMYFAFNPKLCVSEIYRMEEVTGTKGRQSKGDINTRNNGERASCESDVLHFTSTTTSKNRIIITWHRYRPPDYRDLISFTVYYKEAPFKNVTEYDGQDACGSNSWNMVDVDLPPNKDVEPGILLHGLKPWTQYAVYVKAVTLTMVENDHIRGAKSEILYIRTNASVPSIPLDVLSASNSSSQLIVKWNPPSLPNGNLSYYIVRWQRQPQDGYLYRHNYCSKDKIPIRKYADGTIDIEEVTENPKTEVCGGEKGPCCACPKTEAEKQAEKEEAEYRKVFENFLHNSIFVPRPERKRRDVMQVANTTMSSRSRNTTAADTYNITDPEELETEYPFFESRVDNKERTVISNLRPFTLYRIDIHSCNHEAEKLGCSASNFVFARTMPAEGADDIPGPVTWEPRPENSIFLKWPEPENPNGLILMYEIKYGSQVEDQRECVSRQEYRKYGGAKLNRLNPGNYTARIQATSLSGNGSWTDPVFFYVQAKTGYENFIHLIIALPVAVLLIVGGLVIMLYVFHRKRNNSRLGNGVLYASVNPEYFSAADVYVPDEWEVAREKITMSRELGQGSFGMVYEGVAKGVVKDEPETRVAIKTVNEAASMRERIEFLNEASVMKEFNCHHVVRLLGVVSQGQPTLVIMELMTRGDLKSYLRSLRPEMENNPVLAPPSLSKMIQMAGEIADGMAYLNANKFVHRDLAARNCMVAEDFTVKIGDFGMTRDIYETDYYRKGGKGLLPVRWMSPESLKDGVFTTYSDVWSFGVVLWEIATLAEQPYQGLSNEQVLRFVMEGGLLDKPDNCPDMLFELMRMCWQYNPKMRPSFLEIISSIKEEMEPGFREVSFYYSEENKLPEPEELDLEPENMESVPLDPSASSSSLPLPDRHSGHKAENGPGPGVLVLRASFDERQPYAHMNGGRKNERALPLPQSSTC
UniProt Q09HD0, sequence (whole entry, looked up): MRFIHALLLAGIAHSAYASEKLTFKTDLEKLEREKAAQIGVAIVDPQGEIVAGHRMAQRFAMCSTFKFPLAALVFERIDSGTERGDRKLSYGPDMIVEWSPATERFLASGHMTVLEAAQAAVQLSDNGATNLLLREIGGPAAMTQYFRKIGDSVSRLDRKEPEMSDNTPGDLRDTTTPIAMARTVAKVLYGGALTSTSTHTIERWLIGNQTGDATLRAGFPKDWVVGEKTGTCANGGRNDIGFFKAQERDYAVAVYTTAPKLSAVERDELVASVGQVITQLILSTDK

SMILES	target or system	assay	system	conditions	scale	measurement	value
O=C(CN1CN(c2ccccc2)C2(CCN(C(=O)c3cnc4[nH]ncc4c3)CC2)C1=O)NCC(F)(F)F	EGFR (Homo sapiens, UniProt P00533, G719C)	inhibitor		concentration not given		inhibition	< 50%
C[C@H](NCc1ccc(-c2ccc(C(F)(F)F)cc2)cc1)C(N)=O	Tyrosine-protein kinase ABL1, phosphorylated (ABL1, Homo sapiens, UniProt P00519, T315I)	cell-free assay, competition with immobilised ligand		1 µM		inhibition	10%
O=C1NC2(CC2)COc2ncc(F)cc2[C@H]2COCCN2c2ccn3ncc1c3n2			Sprague-Dawley rat, female, heart	oral, 5 mg/kg/day, 4 weeks, end of treatment		organ-to-brain weight ratio	66.6 ± 6.18%
COC(=O)[C@@H](NC(=O)c1nn(Cc2ccc(F)cc2)c2cc(OCCCCNC(=N)N)ccc12)C(C)(C)C	CNR1 (Homo sapiens, UniProt P21554)	β-arrestin recruitment, agonist, BRET				Emax	47%
CC(C)[C@H]1NC(=O)C[C@H]2/C=C/CCSSC[C@@H](NC1=O)C(=O)N[C@H](Cc1cccc3ccccc13)C(=O)NCC(=O)O2	MST1R (Homo sapiens, UniProt Q04912)	enzyme activity, inhibitor		10 µM		inhibition	12.7%
O=C1NC(=O)c2c1c1cc(F)c[n+]3c1c1c2c2cc(O)ccc2[n]1[Ru-4]312([N]=C=S)[S+]3CC[S+]1CC[S+]2CC3 (stereo not shown)	TAOK1 (Homo sapiens, UniProt Q7L7X3)	enzyme activity		100 nM, human enzyme, with: 10 µM ATP	reference: untreated	remaining activity	96%
C#CCCCCOc1ccc2c(c1)CCCN2C(=O)CCl	Palmitoyl-protein thioesterase 1 (Homo sapiens, UniProt P50897)	mass spectrometry profiling, refers to: PPT1	H460 cell lysate	100 µM over 10 µM, UniProt P50897	reference: high over low concentration	reactivity ratio	1.33
CC[C@H](C)[C@H](NC(C)=O)C(=O)N[C@@H](CCCNC(=N)N)C(=O)N[C@@H](CC(C)C)C(=O)N[C@@H](CCC(N)=O)C(=O)N[C@H](C(=O)N[C@@H](CO)C(=O)N[C@@H](CC(N)=O)C(=O)N1CCC[C@H]1C(=O)N[C@@H](Cc1ccc(O)cc1)C(=O)N[C@@H](CC(C)C)C(=O)N[C@@H](CCCCN)C(=O)N[C@@H](Cc1ccccc1)C(=O)N[C@H](C(=O)N1CCC[C@H]1C(=O)N[C@@H](CC(C)C)C(=O)N[C@@H](CCCCN)C(=O)N[C@@H](CCCNC(=N)N)C(=O)N[C@@H](C)C(=O)N[C@H](C(=O)N[C@@H](Cc1c[nH]c2ccccc12)C(=O)N[C@@H](CC(C)C)C(=O)N[C@H](C(=O)N[C@@H](CCCCN)C(N)=O)[C@@H](C)CC)[C@@H](C)CC)[C@@H](C)CC)[C@@H](C)CC	Interferon regulatory factor 5, residues 222-425 (IRF5, Homo sapiens, UniProt Q13568)	thermal shift				melting temperature	40.6 ± 0.1 °C
CC(C)(C)C(=O)OCOP(=O)(OCOC(=O)C(C)(C)C)C1CCCN(O)C1=O (stereo not shown)	SF-268					GI50	441 nM
COc1ccccc1-c1n[nH]c2nc(N[C@H]3CC[C@H](NS(=O)(=O)CC(C)C)CC3)ncc12		bead binding, competition bead pull-down, refers to: LINJ.29.2420	Leishmania donovani extract	10 µM	reference: vehicle	relative abundance	0.86
CC(C)CC(O)(CC(C)C)c1cn(C(=O)N2CCCC2)nn1	Diacylglycerol lipase-beta (Mus musculus, UniProt Q91WC9)	probe labelling, inhibitor, competitive ABPP-SILAC	mouse T cells	concentration not given, 4 h, single peptide	reference: treated over DMSO cells, lower = stronger inhibition	SILAC activity ratio	1.04 and 1.25 and 1.39 and 1.12
COc1ncc2nc(C)n(Cc3ncc(S(N)(=O)=O)cc3F)c2c1-c1ccccc1	HTR2A (Homo sapiens, UniProt P28223)		cells	10 µM		activity	-3.25%
CC[C@H](C)[C@H](NC(=O)[C@H](CO)NC(=O)[C@H](Cc1ccc(O)cc1)NC(=O)[C@H](Cc1ccc(O)cc1)NC(=O)[C@H](CC(N)=O)NC(=O)CNC(=O)[C@H](CO)NC(=O)[C@H](Cc1ccc(O)cc1)NC(=O)[C@H](CO)NC(=O)[C@H](CO)NC(=O)[C@H](CC(N)=O)NC(=O)COCCOCCNC(=O)CN1CCN(CC(=O)O)CCN(CC(=O)O)CCN(CC(=O)O)CC1)C(=O)N[C@@H](CC(C)C)C(N)=O [copper-64 labelled]		dynamic PET	tamoxifen-induced PDAC mouse model, pancreas	0.1 min, CLDN4-expressing tumours		maximum pancreas uptake	1.26 %IA/cc
COc1cc2c3cc1Oc1cc(ccc1O)CC1c4c(cc(OC)c(O)c4Oc4ccc(cc4)CC3N(C)CC2)CCN1C (stereo not shown)	Glideosome-associated protein 50 (GAP50, Plasmodium falciparum, UniProt Q8I2X3)	surface plasmon resonance				kon	159 M⁻¹ s⁻¹
Cc1nc2cccc(OCC(C)(C)C(=O)NC(C)C)c2c(N)c1C(=O)[O-].[Na+]	Salmonella typhimurium	Ames plate incorporation	TA98	0.32 mg/plate, with: with rat liver S9		revertant colonies	39 ± 6 colonies/plate
CS(C)(=O)=Nc1ccc(-c2ccc(-c3nc4cc(O[C@@H]5CO[C@H]6[C@@H]5OC[C@H]6O)[nH]c4cc3F)cc2)cc1	IGF1R (Homo sapiens, UniProt P08069)	enzyme activity, inhibitor		10 µM		inhibition	28%
N[C@H](C(=O)N1CCCC1)C1CCN(c2nccc3c(-c4ncc(Cl)cc4Cl)cccc23)CC1	TACR1 (Homo sapiens, UniProt P25103)	functional response, agonist		10 µM		response	2%
CC[C@H](C)[C@@H]([C@@H](CC(=O)N1CCC[C@H]1[C@H](OC)[C@@H](C)C(=O)N[C@H](C)[C@@H](O)c1ccccc1)OC)N(C)C(=O)[C@@H](NC(=O)[C@H](C(C)C)N(C)C(=O)OCc1ccc(NC(=O)[C@H](CCCNC(N)=O)NC(=O)[C@@H](NC(=O)CCCCCN2C(=O)CC(SC[C@H](NC(=O)[C@H](CC(=O)O)NC(=O)[C@H](Cc3ccc(O)cc3)NC(=O)[C@H](Cc3c[nH]c4ccccc34)NC(=O)[C@@H](N)CCCNC(=N)N)C(=O)O)C2=O)C(C)C)cc1)C(C)C (stereo partly shown)			C57BL/6 mouse, healthy, lung	intraperitoneal, 2.5 mg/kg, 1 h		concentration	not detected
N=C(N)NCCC[C@@H]1NC(=O)[C@H](CCCCNC(=O)CCC(NC(=S)Nc2ccc(CC3CN(CC(=O)O)CCN(CC(=O)O)CCN(CC(=O)O)CCN3CC(=O)O)cc2)C(=O)NCCCC[C@@H]2NC(=O)[C@@H](Cc3ccc(O)cc3)NC(=O)[C@H](CC(=O)O)NC(=O)CNC(=O)[C@H](CCCNC(=N)N)NC2=O)NC(=O)[C@@H](Cc2ccc(O)cc2)NC(=O)[C@H](CC(=O)O)NC(=O)CNC1=O (stereo partly shown) [scandium-44 labelled]		ex vivo γ-counting	female athymic nude mice, U-87 MG xenograft, stomach	intravenous, 4 h		tissue uptake	0.71 ± 0.3 %ID/g
Cc1cc(C(=O)Nc2nc3cccc(C)c3n2[C@H]2CCCCN(C(=O)/C=C/CN(C)C)C2)ccn1	Trypanosoma brucei	propidium iodide flow cytometry	bloodstream form	concentration not given, 6 h		cells in S phase	20.5%
CC[C@H](C)[C@@H]1NC(=O)[C@H](Cc2ccc(O)cc2)NC(=O)[C@H](CCCNC(=N)N)NC(=O)[C@@H](NC(=O)[C@H](C)N)CSSC[C@@H](C(=O)N[C@@H](CO)C(=O)NCC(N)=O)NC(=O)[C@H](Cc2ccccc2)NC(=O)[C@H](Cc2c[nH]c3ccccc23)NC(=O)CNC(=O)[C@@H]2CSSC[C@H](NC1=O)C(=O)N[C@@H](CC(C)C)C(=O)N[C@@H](CO)C(=O)N[C@@H](Cc1ccccc1)C(=O)N[C@@H](CCCNC(=N)N)C(=O)N[C@@H](Cc1c[nH]cn1)C(=O)N2	Beta-lactamase GES-5 (blaGES-5, Klebsiella pneumoniae, UniProt Q09HD0)	surface plasmon resonance		pH 7.4, 25 °C, 2% DMSO, 0.005% Tween-20, 1:1 model		dissociation rate constant	0.00041 s⁻¹
COc1ccccc1-c1n[nH]c2nc(NC3CCN(C(=O)Cc4ccc(F)cc4F)CC3)ncc12		bead binding, competition bead pull-down, refers to: LINJ.30.3560	Leishmania donovani axenic amastigote extract	10 µM	reference: vehicle	relative abundance	0.96
CCOC(=O)[C@@H]1Cc2c(cc([N+](=O)[O-])cc2[N+](=O)[O-])[C@H](O)[C@]12C(=O)Nc1ccc(Br)cc12	RIOK2 (Homo sapiens, UniProt Q9BVS4)	binding, competition with immobilised ligand		0.1 µM		remaining binding	97%
CC[C@H](C)[C@H](NC(=O)[C@H](CO)NC(=O)[C@H](CO)NC(=O)[C@H](CCC(=O)O)NC(=O)[C@H](CCC(=O)O)NC(=O)[C@H](CCCCN)NC(=O)[C@H](CO)NC(=O)[C@@H](NC(=O)[C@H](CO)NC(=O)[C@H](CC(C)C)NC(=O)[C@H](Cc1ccccc1)NC(=O)[C@H](CCCNC(=N)N)NC(=O)[C@H](C)NC(=O)[C@H](Cc1ccccc1)NC(=O)[C@H](Cc1ccccc1)NC(=O)[C@@H]1CCCN1C(=O)[C@H](CC(C)C)NC(=O)[C@H](C)NC(=O)[C@H](CCCCN)NC(=O)CNC(=O)[C@H](CCC(N)=O)NC(=O)[C@H](CCC(N)=O)NC(=O)[C@H](CC(=O)O)NC(=O)[C@H](CC(N)=O)NC(=O)[C@@H]1CCCN1C(=O)[C@H](Cc1ccc(O)cc1)NC(=O)[C@H](C)NC(=O)[C@@H](N)CCSC)C(C)C)C(=O)N[C@@H](CCCCN)C(=O)N[C@@H](CO)C(=O)N1CCC[C@H]1C(=O)N[C@@H](CO)C(=O)N1CCC[C@H]1C(=O)N[C@@H](CC(=O)O)C(=O)N[C@@H](Cc1c[nH]cn1)C(=O)N[C@@H](CCC(=O)O)C(=O)N[C@H](C(=O)N[C@@H](CO)C(=O)N[C@H](C(=O)N[C@@H](CCCNC(=N)N)C(=O)N[C@@H](CCCCN)C(=O)N[C@@H](Cc1ccc(O)cc1)C(=O)N1CCC[C@H]1C(=O)N[C@@H](CO)C(=O)N[C@@H](CC(=O)O)C(=O)N[C@@H](Cc1c[nH]c2ccccc12)C(=O)N[C@@H](CCC(=O)O)C(=O)N[C@@H](CCC(=O)O)C(=O)N[C@@H](Cc1c[nH]c2ccccc12)C(=O)O)[C@@H](C)O)[C@@H](C)CC	uncharacterized protein (Microcystis aeruginosa MRC, UniProt B2G3D0, E294A/N296A)	ITC	Microcystis aeruginosa	concentration not given, pH 8.0, 25 °C		binding stoichiometry	0.84 ± 0.05
CON(C(=O)c1cn(C)nc1C(F)F)C(C)Cc1c(Cl)cc(Cl)cc1Cl (stereo not shown)	SDHD/SDHC/SDHB (Sus scrofa, UniProt A5GZW8+D0VWV4+Q007T0)	enzyme activity, inhibitor, DCIP reduction	pig	0.3 µM, with: DCIP 160 µM		reaction velocity	0.0172 µM/s and 0.0165 µM/s
CN(C)[C@H]1C[C@@]23CC[C@@]4(O2)C(=CC[C@]2(C)[C@@H](c5ccc6ccncc6c5)CC[C@H]24)C=C3[C@@H](O)[C@@H]1O	PKN2 (Homo sapiens, UniProt Q16513)	ATP probe labelling, inhibitor, KiNativ profiling		1 µM		inhibition	-5%
COCC1CCCCN1C(=O)n1cc(C(O)(c2ccccc2)c2ccccc2)nn1 (stereo not shown)	Isoamyl acetate-hydrolyzing esterase 1 homolog (Iah1, Mus musculus, UniProt Q9DB29)	probe labelling, inhibitor, competitive ABPP-SILAC, refers to: Iah1	mouse T cells	concentration not given, 4 h, protein level	reference: treated over DMSO cells, lower = stronger inhibition	SILAC activity ratio	1.38
CC(C)NCCN1C(=O)CSC1c1ccc(F)cc1 (stereo not shown)	uncharacterized protein (Anopheles gambiae, UniProt Q7QFG0)	Ellman		1000 µM, with: acetylthiocholine		IC50	inactive

A few entries again:
SMILES	target or system	assay	system	conditions	scale	measurement	value
O=C1NC(=O)c2c1c1cc(F)c[n+]3c1c1c2c2cc(O)ccc2[n]1[Ru-4]312([N]=C=S)[S+]3CC[S+]1CC[S+]2CC3 (stereo not shown)	TAOK1 (Homo sapiens, UniProt Q7L7X3)	enzyme activity		100 nM, human enzyme, with: 10 µM ATP	reference: untreated	remaining activity	96%
C#CCCCCOc1ccc2c(c1)CCCN2C(=O)CCl	Palmitoyl-protein thioesterase 1 (Homo sapiens, UniProt P50897)	mass spectrometry profiling, refers to: PPT1	H460 cell lysate	100 µM over 10 µM, UniProt P50897	reference: high over low concentration	reactivity ratio	1.33
CC[C@H](C)[C@H](NC(C)=O)C(=O)N[C@@H](CCCNC(=N)N)C(=O)N[C@@H](CC(C)C)C(=O)N[C@@H](CCC(N)=O)C(=O)N[C@H](C(=O)N[C@@H](CO)C(=O)N[C@@H](CC(N)=O)C(=O)N1CCC[C@H]1C(=O)N[C@@H](Cc1ccc(O)cc1)C(=O)N[C@@H](CC(C)C)C(=O)N[C@@H](CCCCN)C(=O)N[C@@H](Cc1ccccc1)C(=O)N[C@H](C(=O)N1CCC[C@H]1C(=O)N[C@@H](CC(C)C)C(=O)N[C@@H](CCCCN)C(=O)N[C@@H](CCCNC(=N)N)C(=O)N[C@@H](C)C(=O)N[C@H](C(=O)N[C@@H](Cc1c[nH]c2ccccc12)C(=O)N[C@@H](CC(C)C)C(=O)N[C@H](C(=O)N[C@@H](CCCCN)C(N)=O)[C@@H](C)CC)[C@@H](C)CC)[C@@H](C)CC)[C@@H](C)CC	Interferon regulatory factor 5, residues 222-425 (IRF5, Homo sapiens, UniProt Q13568)	thermal shift				melting temperature	40.6 ± 0.1 °C
